Results from different studies.
Protocols differ between the studies behind these lines. Several values in a cell are separate wells, animals, samples, runs or records. ± marks the error that the study gave.

SMILES | cell line | test | conditions | scale | quantity | value
Cc1sc2c(c1C)C(c1ccc(Cl)cc1)=N[C@@H](CC(=O)NCC(=O)N1CCC3(CCC(C(=O)N4CCN(C(=O)c5cc(Cc6n[nH]c(=O)c7ccccc67)ccc5F)CC4)CC3)CC1)c1nnc(C)n1-2 | NCI-H82 | – | 1000 nM, 24 h | – | cells in S phase | 83%
Cc1cc(NC2CCN(C)CC2)ccc1-c1cc2c(N3CCC[C@H](C(=O)N[C@H](C)c4ccccc4)C3)ncnc2[nH]1 | NCI-H2228 | cell growth or viability, MTT | 0.2 µg/mL, 72 h | – | inhibition | 77.2%
CC(C)c1ccc(N(C)c2ccc3c(c2)OCC[C@H]3CNc2cnccc2C(=O)O)cc1 | HuH-1 | cell growth or viability, ATP luminescence | 7 days | – | IC50 | 11.8 nM
CC(C)Cc1ccc(C(C)C(=O)[Se]CC(=O)Nc2cccc(C(F)(F)F)c2)cc1 (stereo not drawn) | NCI60 renal subpanel | total growth inhibition, inhibitor | five-dose | – | mean TGI | 3800 nM
Cc1ncsc1-c1ccc(C(C)NC(=O)C2CC(O)CN2C(=O)C(NC(=O)CCCCCCCCCCN2CCCC(Nc3ncc(Cl)c(Nc4ccccc4S(=O)(=O)C(C)C)n3)C2)C(C)(C)C)cc1 (stereo not drawn) | 22Rv1 | RNA-seq, refers to: PRR14L mRNA | concentration not given | reference: DMSO | log2 fold change | -1.79
Cc1noc(C)c1-c1cc2c(N3CCC[C@H](C(=O)NCc4ccc(OC(F)(F)F)cc4)C3)ncnc2[nH]1 | NCI-H2228 | cell growth or viability, MTT | 1 µg/mL, 72 h | – | inhibition | 70.7%
COc1ccc2c(C)nc(Nc3nc(O)cc(-c4ccccc4)n3)nc2c1 | LDR | silenced CMV-GFP reporter derepression, qHTS | – | – | Emax | 76%
C=CC(=O)Oc1ccc(OC)c(-c2c[nH]c3ncc(-c4cncc(C(=O)N(C)C)c4)cc23)c1 | Ba/F3 BCR-ABL T315I | cell proliferation | 72 h | – | GI50 | 61.9 ± 35.6 nM
CN1CCCNC(=O)c2cccc(c2)C(=O)NCCCN(C)CCCNc2cccc3c2C(=O)c2cccc(c2C3=O)NCCC1 | SAS | RNA-seq, refers to: NCBP2-AS2 mRNA | 1 µM, 6 h | reference: untreated cells | log2 fold change | -0.529
COc1ccccc1-c1ccncc1C(=O)Nc1nnc(OCc2ccc(Cl)cc2)s1 | DLD-1 BRCA2-/- | – | 0.5 µM, single replicate | – | colony count | 38 and 35 and 19 and 22 and 43 and 39
Cn1ncc2cc(-c3cncc(Cl)c3N3CCC4(CCNC4=O)CC3)ccc21 | LS174T | microarray, refers to: MT1E | concentration not given, 4 h, gene set Metallothionein-1E | reference: untreated cells | fold change in expression | -2.15
Cn1cc(-c2cc3c(N4CCC[C@H](C(=O)NCc5ccc(OC(F)(F)F)cc5)C4)ncnc3[nH]2)cn1 | NCI-H2228 | cell growth or viability, MTT | 5 µg/mL, 72 h | – | inhibition | 85.3%
O=C(C[Se]C(=O)c1cccnc1Nc1cccc(C(F)(F)F)c1)Nc1cccc(C(F)(F)F)c1 | NCI60 renal subpanel | cell growth | 10 µM, 48 h, one-dose | – | mean growth percent | -83.5%
CCc1ccc(OCc2nnc(SC3CCCC3=O)n2C(C)c2ccccc2)cc1 (stereo not drawn) | HEK293T | FOPFlash reporter gene, inhibitor | 10 µM, 24 h, counter-screen, viability-normalized | – | inhibition | 47.3%
CNS(=O)(=O)Nc1nccc(Cc2c(C)c3ccc(Oc4ncccc4F)cc3oc2=O)c1F | NCI-H1395 | cell viability, CellTiter-Glo | 7 days | – | IC50 | > 1000 nM
COc1c(C)c(OS(=O)(=O)c2ccccc2)c(C)c2c1C(=O)CC(c1ccccc1)O2 (stereo not drawn) | SH-SY5Y | SRB | – | reference: normal over SH-SY5Y IC50 | selectivity index | > 1.12
COc1ccc(NC(=O)C2CCCN(c3ncnc4[nH]c(-c5ccc(NC6CCN(C)CC6)cc5C)cc34)C2)cc1 (stereo not drawn) | NCI-H2228 | cell growth or viability, MTT | 0.008 µg/mL, 72 h | – | inhibition | 62.6%
CC(C)(O)c1ccn2c(-c3ccc(F)c(-c4ccc(F)cc4C#N)c3)cnc2c1F | HEK-293T stably expressing GABAA receptors | quantitative RT-PCR, refers to: α1 G251D, β2, γ2 subunits | 5 µM, 24 h, together with: hispidulin 10 µM | – | mRNA level | no effect

Repeated from above:
SMILES | cell line | test | conditions | scale | quantity | value
O=C(C[Se]C(=O)c1cccnc1Nc1cccc(C(F)(F)F)c1)Nc1cccc(C(F)(F)F)c1 | NCI60 renal subpanel | cell growth | 10 µM, 48 h, one-dose | – | mean growth percent | -83.5%
Cn1cc(-c2cc3c(N4CCC[C@H](C(=O)NCc5ccc(OC(F)(F)F)cc5)C4)ncnc3[nH]2)cn1 | NCI-H2228 | cell growth or viability, MTT | 5 µg/mL, 72 h | – | inhibition | 85.3%
CCc1ccc(OCc2nnc(SC3CCCC3=O)n2C(C)c2ccccc2)cc1 (stereo not drawn) | HEK293T | FOPFlash reporter gene, inhibitor | 10 µM, 24 h, counter-screen, viability-normalized | – | inhibition | 47.3%
